Measurements of several laboratories.
Compare with care: the assays were run in different laboratories. “And” joins repeats or separate records; there may be more than shown. Numbers after ± are the reported error.
UniProt Q64663, sequence (whole entry, unmodified, looked up): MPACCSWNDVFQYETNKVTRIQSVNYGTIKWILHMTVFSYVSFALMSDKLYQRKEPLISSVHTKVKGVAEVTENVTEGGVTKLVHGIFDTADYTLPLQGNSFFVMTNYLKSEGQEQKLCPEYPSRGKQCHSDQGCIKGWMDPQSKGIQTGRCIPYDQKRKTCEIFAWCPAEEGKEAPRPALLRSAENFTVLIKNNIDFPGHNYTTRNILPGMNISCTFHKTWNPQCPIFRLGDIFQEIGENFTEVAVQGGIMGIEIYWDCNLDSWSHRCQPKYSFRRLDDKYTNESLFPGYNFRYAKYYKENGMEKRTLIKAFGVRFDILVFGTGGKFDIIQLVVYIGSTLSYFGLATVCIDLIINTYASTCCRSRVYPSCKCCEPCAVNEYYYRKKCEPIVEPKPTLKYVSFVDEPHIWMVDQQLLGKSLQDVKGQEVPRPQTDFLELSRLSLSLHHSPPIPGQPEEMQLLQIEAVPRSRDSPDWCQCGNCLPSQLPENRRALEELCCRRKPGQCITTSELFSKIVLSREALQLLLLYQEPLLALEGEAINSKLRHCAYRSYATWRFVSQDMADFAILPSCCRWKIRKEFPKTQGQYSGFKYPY

BzATP  normalized current (P2X purinoceptor 7 (P2rx7, Rattus norvegicus, UniProt Q64663, R125A); ion current, agonist, two-electrode voltage clamp; Xenopus oocytes; 0.1372 µM): 0.0093 and 0.105 and 0.0793
ILEAAKSIAAATSALVKAASAAQRE  rupture force FWHM lower side (vinculin head domain Vd1; complex rupture, AFM single-molecule force spectroscopy; peptide; double traces, C-terminal pulling, 800 nm/s): 7.43 pN
maraviroc  phospho-GSK-3α decrease (GSK-3α; mice, NSG hu-PBL, HIV-infected, brain SSC region; ip, 120 mg/kg twice daily, 3 weeks post-infection, GSK-3α, total, normalized to; reference: untreated HIV-infected mice): 2.7 fold
SEKHFRETEV  binding intensity (human MAGI1-2/6 PDZ construct (MBP fusion); automated holdup; peptide, purified PDZ protein; concentration not given, unit not given; reference: biotin control resin, higher = stronger binding): 0.396
GEMVGQARILAQATSDLVNAIKDA  rupture force FWHM lower side (vinculin head domain Vd1; complex rupture, AFM single-molecule force spectroscopy; peptide; double traces, C-terminal pulling, 800 nm/s): 13.6 pN
ACEQNPIYWARYADWLFTTPLLLLDLALLVDADEGT  mean fluorescence intensity (ex vivo fluorescence imaging; peptide, BALB/c mice, 4T1 tumour-bearing, kidney; intravenous, 5 nmol, 48 h post-injection; higher = more uptake): 485 ± 126 a.u.
GSGAGIESNV  binding intensity (human MAGI1-3/6 PDZ construct (MBP fusion); automated holdup; peptide, purified PDZ protein; concentration not given, unit not given; reference: biotin control resin, higher = stronger binding): -0.0713
AAAEGEMK  fractional oxidation (MsrA and MsrB; LC-MS/MS; peptide, actinonin-treated Escherichia coli proteome; 20 min, pH 7.5, 37 °C, added: MsrA 0.54 µM, MsrB 2.02 µM): 0.469
GSGAGICTIV  normalised SPR binding response (human MAGI1-2/6 PDZ construct (MBP fusion); surface plasmon resonance; peptide; concentration not given; higher = stronger binding): 6.8 normalised RU
Pam2CSK4  relative mRNA level (TLR2; agonist, RT-qPCR, refers to: Marco; BV-2; 1.0 µM; reference: untreated cells): 2.23 and 2.98 and 3.75
Peginesatide  mRNA level (UT7/EPO; RT-qPCR, refers to: IRF1; concentration not given, 90 min, normalized to HPRT1; reference: vehicle): 3.4 fold
11-deoxycorticosterone  rate constant (stopped-flow global kinetic fitting; 4-state closed model (best), 40-fold adrenodoxin excess, added: substrate binding k3): 6.19 min⁻¹
Pam3CSK4  relative mRNA level (TLR2; agonist, RT-qPCR, refers to: Mrc1; BV-2; 1.0 µM; reference: untreated cells): 0.209 and 0.247 and 0.252
AAASMWR  fractional oxidation (MsrA and MsrB; LC-MS/MS; peptide, acetylated Escherichia coli proteome; 10 min, pH 7.5, 37 °C, added: MsrA 0.54 µM, MsrB 2.02 µM): 0.403
colistin  MIC (Pseudomonas aeruginosa; clinical isolate RKI 402/14): ≤ 1 µg/mL

Excerpt of the above:
GSGAGIESNV  binding intensity (human MAGI1-3/6 PDZ construct (MBP fusion); automated holdup; peptide, purified PDZ protein; concentration not given, unit not given; reference: biotin control resin, higher = stronger binding): -0.0713
ACEQNPIYWARYADWLFTTPLLLLDLALLVDADEGT  mean fluorescence intensity (ex vivo fluorescence imaging; peptide, BALB/c mice, 4T1 tumour-bearing, kidney; intravenous, 5 nmol, 48 h post-injection; higher = more uptake): 485 ± 126 a.u.
